{"data": "Results of several laboratories", "note": "Each line is one published result; not all experiments were run side by side. ± marks the error that the study gave."}
{"SMILES": "CC(C)[C@H](NC(=O)[C@@H]1CCCN1C(=O)[C@H](CCCNC(=N)N)NC(=O)[C@H](CS)NC(=O)[C@H](Cc1c[nH]c2ccccc12)NC(=O)[C@H](CCCNC(=N)N)NC(=O)[C@@H](Cc1ccccc1)NC(=O)[C@H](Cc1c[nH]cn1)NC(=O)[C@H](CCC(=O)O)NC(=O)[C@H](CS)NC(=O)[C@H](CS)NC(=O)CNC(=O)[C@@H]1CC(=O)N[C@@H](CCCNC(=N)N)C(=O)NCC(=O)N[C@@H](CC(=O)O)C(=O)N[C@H](Cc2ccc(O)cc2)C(=O)N1)C(N)=O [technetium-99m labelled]", "test system": "C57 mouse, female, B16/F1 melanoma, lung", "setting": "intravenous, 0.037 MBq, 24 h", "tissue uptake [%ID/g]": "0.34 ± 0.11"}
{"SMILES": "CN(C)c1ccc(-c2nc3ccc(OCCCCCN4CCN5CCN(CC4)CC(=O)[O][Al]([18F])[O]C(=O)C5)cc3s2)cc1", "test system": "ICR mouse, lung", "setting": "intravenous, 10 min", "tissue uptake [%ID/g]": "9.21 ± 2.33"}
{"SMILES": "O=C([O-])CN1CCN(CC(=O)[O-])CCN(CC(=O)NCCc2ccc3c(c2)C2C=CCC2C(c2cc4c(cc2Br)OCO4)N3)CCN(CC(=O)[O-])CC1.[111In+3] (centres unmarked)", "test system": "mouse, Hec50 endometrial tumour, small intestine", "setting": "2 h post injection", "tissue uptake [%ID/g]": "6.12 ± 3.96"}
{"SMILES": "CCCC[C@H](NC(=O)CNC(=O)CNC(=O)CN1CCN(CC(=O)O)CCN(CC(=O)O)CCN(CC(=O)O)CC1)C(=O)N[C@H]1CC(=O)NCCCC[C@@H](C(N)=O)NC(=O)[C@H](Cc2c[nH]c3ccccc23)NC(=O)[C@H](CCCNC(=N)N)NC(=O)[C@@H](Cc2ccccc2)NC(=O)[C@H](Cc2c[nH]cn2)NC1=O [lead-203 labelled]", "test system": "C57 mouse, heart", "setting": "intravenous, 0.056 MBq, 4 h", "tissue uptake [%ID/g]": "0.28 ± 0.08"}
{"SMILES": "CCCC[C@H](NC(=O)CNC(=O)CNC(=O)CN1CCN(CC(=O)O)CCN(CC(=O)O)CCN(CC(=O)O)CC1)C(=O)N[C@H]1CC(=O)NCCCC[C@@H](C(N)=O)NC(=O)[C@H](Cc2c[nH]c3ccccc23)NC(=O)[C@H](CCCNC(=N)N)NC(=O)[C@@H](Cc2ccccc2)NC(=O)[C@H](Cc2c[nH]cn2)NC1=O [copper-64 labelled]", "test system": "female C57 mouse, B16/F1 melanoma, kidneys", "setting": "intravenous, 0.037 MBq, 4 h", "tissue uptake [%ID/g]": "7.45 ± 0.96"}
{"SMILES": "CN1C(=O)[C@@H](Cc2ccc(O)c(I)c2)NC(=O)CNC(=O)[C@H](Cc2ccc3ccccc3c2)NC(=O)[C@H](CCCNC(=N)N)NC(=O)[C@H]1CCCNC(=O)c1ccc(CNC(=O)CN2CCN(CC(=O)O)CCN(CC(=O)O)CCN(CC(=O)O)CC2)cc1 [lutetium-177 labelled]", "test system": "female CB-17 SCID mouse, Daudi xenograft, lung", "setting": "intravenous, 6 h, CXCR4 blocking, with: AMD3100 2 mg/kg coinjected", "tissue uptake [%ID/g]": "0.39 ± 0.03"}
{"SMILES": "CC(C)[C@H](NC(=O)[C@@H]1CCCN1C(=O)[C@H](CCCNC(=N)N)NC(=O)[C@H](CS)NC(=O)[C@H](Cc1c[nH]c2ccccc12)NC(=O)[C@H](CCCNC(=N)N)NC(=O)[C@@H](Cc1ccccc1)NC(=O)[C@H](Cc1c[nH]cn1)NC(=O)[C@H](CCC(=O)O)NC(=O)[C@H](CS)NC(=O)[C@H](CS)NC(=O)[C@@H]1CC(=O)N[C@@H](CCCNC(=N)N)C(=O)NCC(=O)N[C@@H](CC(=O)O)C(=O)N[C@H](Cc2ccc(O)cc2)C(=O)N1)C(N)=O [technetium-99m labelled]", "test system": "C57 mouse, female, B16/F1 melanoma, heart", "setting": "intravenous, 0.037 MBq, 4 h", "tissue uptake [%ID/g]": "0.31 ± 0.08"}
{"SMILES": "CCCC[C@H](NC(=O)CNC(=O)CNC(=O)CN1CCN(CC(=O)O)CCN(CC(=O)O)CC1)C(=O)N[C@H]1CC(=O)NCCCC[C@@H](C(N)=O)NC(=O)[C@H](Cc2c[nH]c3ccccc23)NC(=O)[C@H](CCCNC(=N)N)NC(=O)[C@@H](Cc2ccccc2)NC(=O)[C@H](Cc2c[nH]cn2)NC1=O [copper-64 labelled]", "test system": "female C57 mouse, B16/F1 melanoma, tumor", "setting": "intravenous, 0.037 MBq, 24 h", "tissue uptake [%ID/g]": "4.25 ± 0.32"}
{"note": "For quick reference, copied from above:"}
{"SMILES": "CC(C)[C@H](NC(=O)[C@@H]1CCCN1C(=O)[C@H](CCCNC(=N)N)NC(=O)[C@H](CS)NC(=O)[C@H](Cc1c[nH]c2ccccc12)NC(=O)[C@H](CCCNC(=N)N)NC(=O)[C@@H](Cc1ccccc1)NC(=O)[C@H](Cc1c[nH]cn1)NC(=O)[C@H](CCC(=O)O)NC(=O)[C@H](CS)NC(=O)[C@H](CS)NC(=O)[C@@H]1CC(=O)N[C@@H](CCCNC(=N)N)C(=O)NCC(=O)N[C@@H](CC(=O)O)C(=O)N[C@H](Cc2ccc(O)cc2)C(=O)N1)C(N)=O [technetium-99m labelled]", "test system": "C57 mouse, female, B16/F1 melanoma, heart", "setting": "intravenous, 0.037 MBq, 4 h", "tissue uptake [%ID/g]": "0.31 ± 0.08"}
